Published values collected from several papers.
Parts stem from different laboratories: compare values within a part only.

Sample 1 — technique: competition protein-binding microarray; form: double-stranded DNA, one strand shown; sample: in vitro; tested at: 2 µM; together with: Pho4 competitor, 0.05 µM; reading: higher = stronger binding; quantity: fluorescence intensity
Target: Centromere-binding protein 1, full length, His-tagged (CBF1, Saccharomyces cerevisiae, UniProt P17106, residues 1-351)
UniProt P17106, sequence (whole entry, looked up): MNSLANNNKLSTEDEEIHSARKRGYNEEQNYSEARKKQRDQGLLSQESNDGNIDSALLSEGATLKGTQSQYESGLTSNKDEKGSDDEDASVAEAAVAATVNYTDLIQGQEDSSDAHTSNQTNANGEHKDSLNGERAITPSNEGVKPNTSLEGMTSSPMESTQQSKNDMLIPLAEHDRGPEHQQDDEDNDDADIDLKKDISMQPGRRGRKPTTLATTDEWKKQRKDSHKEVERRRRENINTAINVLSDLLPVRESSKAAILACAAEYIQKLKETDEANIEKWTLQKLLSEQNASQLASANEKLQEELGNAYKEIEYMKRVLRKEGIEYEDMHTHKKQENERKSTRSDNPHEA
Setting: whole 60-bp probe, lowest competitor level
GATAGGTGATGTTGTCATGCCTGAGTATGTGTATGAGTCTTGATTCGCTTGACGCTGCTG: 91.1 a.u.
CTTCTGTAAATTTGAAAAGTGGGTGGACGCGCCCCGGTCTTGATTCGCTTGACGCTGCTG: 101 a.u.
GTCTCTAACCATGATACCGTGACTCGACTACATCCGGTCTTGATTCGCTTGACGCTGCTG: 242 a.u.
CATACCCAACCTTGTCACGTAACTTAAGATATTTGTGTCTTGATTCGCTTGACGCTGCTG: 134 a.u.

Sample 2 — technique: RNA Bind-n-Seq; form: RNA; sample: in vitro; tested at: 200 nM; setting: whole 134-nt RNA, ends assumed; together with: 150 mM KCl; reference: input library; reading: higher = stronger binding; quantity: log2 enrichment
Target: Fragile X messenger ribonucleoprotein 1, C-terminal low-complexity region (Fmr1, Mus musculus, UniProt P35922)
GGGAGUUCUACAGUCCGACGAUCAGUCCUGUGCUACACAUCGUAUGUACCGAAUCGGCCCCGGGGCCCCGGGGCCCCGGGGAAAGUAUUAUGUUACGCCGUUCGGAUCUGCACUGGAAUUCUCGGGUGUCAAGG: -1.56
GGGAGUUCUACAGUCCGACGAUCAGUCCUGUGCUACACAUCGUAUGUACCGAAUCGGGAAAAGGGGAAAAGGGGAAAAGGGAAAGUAUUAUGUUACGCCGUUCGGAUCUGCACUGGAAUUCUCGGGUGUCAAGG: 0.0762
GGGAGUUCUACAGUCCGACGAUCUCAAGUCCUGUGCUACACAUCGUAUGUACCGAAUCGGGAAAGGGAAAGGAAAGGAAAGUAUUAUGUUACGCCGUUCGGAUCUGCACUUCCUGGAAUUCUCGGGUGUCAAGG: -0.692

Sample 3 — technique: aptamer microarray, sandwich; form: DNA with 2'F-ANA; sample: in vitro; tested at: 200 nM; together with: Cy3 exosite-II aptamer, 400 nM; reading: higher = stronger binding; quantity: mean fluorescence intensity; sequence: GGTTGGTGTGGTTGG
Target: Prothrombin, mature alpha-thrombin (F2, Homo sapiens, UniProt P00734)
Setting: whole 15-mer aptamer, many near background
2'F-ANA at 1 5 6 8 9 11 14 15: 48.6 a.u.
2'F-ANA at 2 5 7 13 14: 44.4 a.u.
2'F-ANA at 1 2 6 7 8: 162 a.u.
2'F-ANA at 2 5 7 8 13: 61.6 a.u.
2'F-ANA at 3 4 5 7 8 10 12 13: 54.5 a.u.

Mixed results
PhoQ, residues 284 288 289 292 302 303 TLSLKA — fold induction (PhoP, residues 12 14 15 18 19 IQSYL (Escherichia coli, UniProt P23836); Sort-seq, refers to: YFP reporter; E. coli; PhoQ-PhoP variant library, together with: 10 µM Mg2+; reference: high Mg2+ state, higher = stronger signaling): 2.25

Repeated from above (sample 3):
2'F-ANA at 2 5 7 8 13: 61.6 a.u.
2'F-ANA at 3 4 5 7 8 10 12 13: 54.5 a.u.
